Published values from different studies.
Numbered parts are unrelated; each lists some results of a single study. Several values in a cell are separate wells, animals, samples, runs or records.
Sequence of UniProt P48729 (whole entry, looked up): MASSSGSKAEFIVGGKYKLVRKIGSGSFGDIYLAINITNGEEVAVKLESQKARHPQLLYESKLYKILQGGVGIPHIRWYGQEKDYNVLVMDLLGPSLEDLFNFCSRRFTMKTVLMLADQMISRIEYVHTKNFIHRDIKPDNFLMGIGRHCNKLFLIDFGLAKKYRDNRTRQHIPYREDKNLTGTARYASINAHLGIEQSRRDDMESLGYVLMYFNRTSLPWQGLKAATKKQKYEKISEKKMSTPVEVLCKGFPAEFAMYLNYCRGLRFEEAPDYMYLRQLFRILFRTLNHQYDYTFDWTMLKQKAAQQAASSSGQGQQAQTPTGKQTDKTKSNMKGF

Block 1 — effect on: kinase activity
SMILES: CNc1ncc2cc(-c3cc(OC)cc(OC)c3Cl)c(=O)n(CCc3ccc(NC(=O)C(C#N)=CC(C)(C)N4CCOCC4)cc3)c2n1
target	tested at	inhibition [%]
Serine/threonine-protein kinase pim-3 (PIM3, Homo sapiens, UniProt Q86V86)	1 µM	-2
Tyrosine-protein kinase CSK (CSK, Homo sapiens, UniProt P41240)	0.1 µM	2
Calcium/calmodulin-dependent protein kinase type 1 (CAMK1, Homo sapiens, UniProt Q14012)	1 µM	2
Serine/threonine-protein kinase N1 (PKN1, Homo sapiens, UniProt Q16512)	1 µM	0
Calcium/calmodulin-dependent protein kinase type 1D (CAMK1D, Homo sapiens, UniProt Q8IU85)	1 µM	12
Serine/threonine-protein kinase D2 (PRKD2, Homo sapiens, UniProt Q9BZL6)	0.1 µM	2
MAP kinase-interacting serine/threonine-protein kinase 2 (MKNK2, Homo sapiens, UniProt Q9HBH9)	1 µM	0
Tyrosine-protein kinase ZAP-70 (ZAP70, Homo sapiens, UniProt P43403)	1 µM	0

Block 2 — effect on: thermal unfolding; method: differential scanning fluorimetry; tested at: 5.5 µM; reading: higher = more unfolded
Structure (SMILES): C[C@@H]1CN(c2ccc(-c3cc(C(=O)NCCOCCOCCOCCOCCOCCOCCNC(=O)/C=C/c4[nH]cc(C(=O)N[C@@H](CC(N)=O)c5ccc(F)c(Cl)c5)c4-c4ccc(Cl)cc4F)ccc3F)cc2NC(=O)c2ccc(F)cc2C(F)(F)F)C[C@H](C)N1C
DCAF1: DDB1- and CUL4-associated factor 1 (DCAF1, Homo sapiens, UniProt Q9Y4B6)
Sequence of UniProt Q9Y4B6 (whole entry, looked up): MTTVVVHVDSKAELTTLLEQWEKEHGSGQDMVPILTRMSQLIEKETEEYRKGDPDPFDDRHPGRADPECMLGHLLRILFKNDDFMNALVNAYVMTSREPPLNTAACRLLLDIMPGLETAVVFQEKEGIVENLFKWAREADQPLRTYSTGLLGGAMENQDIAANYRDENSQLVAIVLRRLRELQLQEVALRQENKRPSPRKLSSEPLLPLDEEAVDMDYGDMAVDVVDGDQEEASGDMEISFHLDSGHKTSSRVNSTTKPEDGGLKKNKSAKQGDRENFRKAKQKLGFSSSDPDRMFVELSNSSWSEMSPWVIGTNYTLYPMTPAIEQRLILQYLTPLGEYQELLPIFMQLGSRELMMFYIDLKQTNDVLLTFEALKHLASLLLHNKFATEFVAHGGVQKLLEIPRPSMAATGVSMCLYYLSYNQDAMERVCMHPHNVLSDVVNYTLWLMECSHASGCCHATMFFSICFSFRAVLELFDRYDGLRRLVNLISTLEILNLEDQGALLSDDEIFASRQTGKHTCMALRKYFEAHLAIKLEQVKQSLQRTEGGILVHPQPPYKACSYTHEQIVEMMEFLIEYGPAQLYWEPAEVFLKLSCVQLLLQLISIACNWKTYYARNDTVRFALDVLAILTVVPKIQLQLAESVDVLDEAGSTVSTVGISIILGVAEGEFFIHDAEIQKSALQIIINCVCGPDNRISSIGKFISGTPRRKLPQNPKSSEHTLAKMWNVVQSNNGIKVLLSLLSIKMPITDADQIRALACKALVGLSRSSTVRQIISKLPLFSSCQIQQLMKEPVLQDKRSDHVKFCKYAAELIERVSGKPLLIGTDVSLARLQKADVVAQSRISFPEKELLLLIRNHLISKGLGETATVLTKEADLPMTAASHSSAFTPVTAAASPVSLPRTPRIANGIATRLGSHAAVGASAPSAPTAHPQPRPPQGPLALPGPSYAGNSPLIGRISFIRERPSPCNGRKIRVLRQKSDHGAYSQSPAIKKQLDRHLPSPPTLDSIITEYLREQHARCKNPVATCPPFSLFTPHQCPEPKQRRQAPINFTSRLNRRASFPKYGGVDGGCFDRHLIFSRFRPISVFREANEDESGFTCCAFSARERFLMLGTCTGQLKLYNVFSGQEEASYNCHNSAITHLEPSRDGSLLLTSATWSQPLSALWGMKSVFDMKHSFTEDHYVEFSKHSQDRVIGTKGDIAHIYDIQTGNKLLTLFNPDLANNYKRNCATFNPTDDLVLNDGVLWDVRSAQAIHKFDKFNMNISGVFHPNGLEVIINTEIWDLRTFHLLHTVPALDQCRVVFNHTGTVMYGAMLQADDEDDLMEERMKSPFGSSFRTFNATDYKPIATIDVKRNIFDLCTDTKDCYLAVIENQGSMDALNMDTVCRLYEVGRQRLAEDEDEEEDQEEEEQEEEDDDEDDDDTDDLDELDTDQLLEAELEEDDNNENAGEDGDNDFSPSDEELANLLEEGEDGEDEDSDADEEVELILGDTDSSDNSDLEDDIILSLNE
target	temperature	SYPRO Orange fluorescence
DCAF1	36 °C	10300 a.u.
WD repeat-containing protein 5 (WDR5, Homo sapiens, UniProt P61964)	80.01 °C	64700 a.u.
DCAF1	87.21 °C	34200 a.u.
DCAF1	41.2 °C	12300 a.u.
DCAF1	40 °C	11400 a.u.
DCAF1	45.6 °C	14700 a.u.
DCAF1	85.81 °C	35100 a.u.

Block 3 — action: degrader
Structure (SMILES): Cn1cc(-c2cccc(CN3CCC4(CC3)COc3c4ccc4c3CN([C@H]3CCC(=O)NC3=O)C4=O)c2)cn1
IKZF4: Zinc finger protein Eos (IKZF4, Homo sapiens, UniProt Q9H2S9)
Sequence of UniProt Q9H2S9 (whole entry, looked up): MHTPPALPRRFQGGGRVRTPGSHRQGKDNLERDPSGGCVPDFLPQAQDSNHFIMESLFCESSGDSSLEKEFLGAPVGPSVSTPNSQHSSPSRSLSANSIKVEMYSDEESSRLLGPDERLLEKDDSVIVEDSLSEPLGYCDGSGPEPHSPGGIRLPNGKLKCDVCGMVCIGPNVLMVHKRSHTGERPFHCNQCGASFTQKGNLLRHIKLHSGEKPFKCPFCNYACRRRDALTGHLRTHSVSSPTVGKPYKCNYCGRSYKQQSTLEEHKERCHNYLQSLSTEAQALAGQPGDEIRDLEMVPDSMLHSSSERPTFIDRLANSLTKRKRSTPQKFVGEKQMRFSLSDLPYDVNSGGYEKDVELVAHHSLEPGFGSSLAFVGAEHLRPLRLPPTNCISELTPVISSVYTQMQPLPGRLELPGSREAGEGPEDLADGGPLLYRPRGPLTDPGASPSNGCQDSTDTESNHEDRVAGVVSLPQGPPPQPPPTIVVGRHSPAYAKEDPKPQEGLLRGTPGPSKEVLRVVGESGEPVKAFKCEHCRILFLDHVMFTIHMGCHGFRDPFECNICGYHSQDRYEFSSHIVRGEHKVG
Zinc finger protein Aiolos: Zinc finger protein Aiolos (Homo sapiens, UniProt Q9UKT9)
Sequence of UniProt Q9UKT9 (whole entry, looked up): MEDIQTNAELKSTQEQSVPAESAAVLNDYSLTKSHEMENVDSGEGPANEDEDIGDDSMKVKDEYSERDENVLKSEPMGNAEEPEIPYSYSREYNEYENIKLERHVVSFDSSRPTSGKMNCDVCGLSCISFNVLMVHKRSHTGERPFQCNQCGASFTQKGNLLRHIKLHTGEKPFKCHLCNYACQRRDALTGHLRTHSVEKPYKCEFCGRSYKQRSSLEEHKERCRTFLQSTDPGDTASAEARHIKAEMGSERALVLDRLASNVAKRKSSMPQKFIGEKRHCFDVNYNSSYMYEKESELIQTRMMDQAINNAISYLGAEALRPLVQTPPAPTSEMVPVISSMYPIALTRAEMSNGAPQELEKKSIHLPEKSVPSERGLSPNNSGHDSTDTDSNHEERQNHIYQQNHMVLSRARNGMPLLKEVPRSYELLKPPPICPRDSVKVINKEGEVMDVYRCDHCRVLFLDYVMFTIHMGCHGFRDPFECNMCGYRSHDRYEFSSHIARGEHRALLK
CRBN/Zinc finger protein Helios: CRBN/Zinc finger protein Helios (Homo sapiens, UniProt Q96SW2+Q9UKS7)
Sequence of UniProt Q96SW2 (whole entry, looked up): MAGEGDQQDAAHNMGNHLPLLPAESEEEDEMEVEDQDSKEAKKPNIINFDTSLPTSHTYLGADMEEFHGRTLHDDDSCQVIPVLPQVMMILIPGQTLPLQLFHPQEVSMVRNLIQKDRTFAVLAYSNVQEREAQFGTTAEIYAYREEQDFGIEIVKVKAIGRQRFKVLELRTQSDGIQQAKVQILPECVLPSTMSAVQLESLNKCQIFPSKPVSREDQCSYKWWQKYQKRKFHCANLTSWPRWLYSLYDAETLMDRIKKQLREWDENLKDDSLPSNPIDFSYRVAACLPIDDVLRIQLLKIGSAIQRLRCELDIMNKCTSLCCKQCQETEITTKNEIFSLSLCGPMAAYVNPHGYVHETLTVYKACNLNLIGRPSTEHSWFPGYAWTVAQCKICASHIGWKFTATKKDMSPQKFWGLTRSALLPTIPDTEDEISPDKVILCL
Sequence of UniProt Q9UKS7 (whole entry, looked up): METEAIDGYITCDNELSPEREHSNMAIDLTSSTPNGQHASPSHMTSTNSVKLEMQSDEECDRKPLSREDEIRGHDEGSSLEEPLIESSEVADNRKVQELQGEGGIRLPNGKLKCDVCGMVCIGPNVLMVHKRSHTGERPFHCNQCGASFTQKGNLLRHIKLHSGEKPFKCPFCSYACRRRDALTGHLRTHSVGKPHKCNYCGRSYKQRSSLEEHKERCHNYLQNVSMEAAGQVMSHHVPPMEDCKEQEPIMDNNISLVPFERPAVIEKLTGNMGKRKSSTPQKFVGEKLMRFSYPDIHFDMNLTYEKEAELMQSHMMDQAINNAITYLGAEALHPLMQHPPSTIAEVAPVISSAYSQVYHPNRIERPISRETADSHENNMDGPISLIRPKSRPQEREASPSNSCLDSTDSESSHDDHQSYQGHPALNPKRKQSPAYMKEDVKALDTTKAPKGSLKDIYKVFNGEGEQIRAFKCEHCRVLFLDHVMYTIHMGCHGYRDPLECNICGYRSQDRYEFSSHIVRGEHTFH
SALL4: Sal-like protein 4 (SALL4, Homo sapiens, UniProt Q9UJQ4)
Sequence of UniProt Q9UJQ4 (whole entry, looked up): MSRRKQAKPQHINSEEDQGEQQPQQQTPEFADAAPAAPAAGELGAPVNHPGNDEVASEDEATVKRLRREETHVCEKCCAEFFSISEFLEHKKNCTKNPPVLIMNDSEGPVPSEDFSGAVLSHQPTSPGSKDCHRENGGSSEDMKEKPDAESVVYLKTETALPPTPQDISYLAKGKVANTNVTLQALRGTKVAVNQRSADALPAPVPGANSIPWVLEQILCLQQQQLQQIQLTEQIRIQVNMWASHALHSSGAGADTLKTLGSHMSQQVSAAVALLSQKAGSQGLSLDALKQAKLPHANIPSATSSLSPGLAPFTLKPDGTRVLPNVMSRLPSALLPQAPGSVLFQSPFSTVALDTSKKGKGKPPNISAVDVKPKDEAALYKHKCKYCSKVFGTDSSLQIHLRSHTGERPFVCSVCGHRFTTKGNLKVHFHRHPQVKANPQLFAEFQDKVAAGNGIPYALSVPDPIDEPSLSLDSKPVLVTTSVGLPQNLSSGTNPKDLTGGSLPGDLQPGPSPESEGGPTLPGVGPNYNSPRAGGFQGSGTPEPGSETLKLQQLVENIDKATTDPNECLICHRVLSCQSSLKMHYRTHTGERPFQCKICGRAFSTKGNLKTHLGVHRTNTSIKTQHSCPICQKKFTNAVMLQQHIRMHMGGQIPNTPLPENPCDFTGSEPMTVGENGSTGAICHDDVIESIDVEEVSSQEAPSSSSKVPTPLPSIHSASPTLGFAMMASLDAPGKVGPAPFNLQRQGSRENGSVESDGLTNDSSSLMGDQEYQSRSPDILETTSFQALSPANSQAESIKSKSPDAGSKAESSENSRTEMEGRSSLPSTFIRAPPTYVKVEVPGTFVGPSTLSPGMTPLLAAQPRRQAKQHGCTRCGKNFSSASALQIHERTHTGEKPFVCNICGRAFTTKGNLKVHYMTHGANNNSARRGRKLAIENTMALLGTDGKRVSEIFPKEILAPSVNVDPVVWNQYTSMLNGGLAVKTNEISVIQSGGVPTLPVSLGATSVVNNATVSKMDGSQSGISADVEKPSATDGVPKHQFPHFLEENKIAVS
target	method	cells	tested at	time	remaining protein
Casein kinase I isoform alpha (CSNK1A1, Homo sapiens, UniProt P48729)	HiBiT	HEK293	1.524 nM	–	106% and 100%
IKZF4	HiBiT	HEK293	333.3 nM	3 h	119% and 115%
Zinc finger protein Aiolos	HiBiT	HEK293	370.37 nM	–	88.1% and 93.4%
IKZF4	HiBiT	HEK293	12.35 nM	6 h	103% and 98.3%
Zinc finger protein Aiolos	HiBiT	HEK293	3333.33 nM	–	87.6% and 88%
Zinc finger protein Aiolos	HiBiT	HEK293	10000 nM	–	83.9% and 88.3%
IKZF4	HiBiT	HEK293	0.4572 nM	6 h	105% and 100%
Eukaryotic peptide chain release factor GTP-binding subunit ERF3A (GSPT1, Homo sapiens, UniProt P15170)	HiBiT	HEK293	370.37 nM	–	101% and 98.2%
CRBN/Zinc finger protein Helios	flow cytometry	Jurkat	333 nM	–	41.1% and 39.5%
IKZF4	HiBiT	HEK293	0.1524 nM	3 h	97.9% and 108%
SALL4	HiBiT	HEK293	4.572 nM	–	82.6% and 87.6%
CRBN/Zinc finger protein Helios	flow cytometry	primary human regulatory T cells	0.4572 nM	3 h	97% and 106%
SALL4	HiBiT	HEK293	41.15 nM	–	65.8% and 90%
CRBN/Zinc finger protein Helios	flow cytometry	primary human regulatory T cells	1.372 nM	6 h	95.8% and 95%

Other studies, line by line
Structure (SMILES)	tested on	test	system	setting	scale	quantity	result
Cc1nc(C)c(C=[N+]([O-])C(C)(C)C)nc1C	–	Western blot	MPTP mouse model, substantia nigra nuclei	10 mg/kg, unit not given	baseline: β-actin	MEF2D protein level	68.8 and 113 and 101
C#CCN1C(=O)C(O)(C(=O)O)Oc2cc(F)ccc21 (stereo not shown)	Arabidopsis thaliana	hypocotyl length	Col-0	6.25 µg/mL, 7 days, seed germination, dark	–	inhibition	19.4%

For quick reference, copied from above (block 3):
target	method	cells	tested at	time	remaining protein
Zinc finger protein Aiolos	HiBiT	HEK293	370.37 nM	–	88.1% and 93.4%
IKZF4	HiBiT	HEK293	12.35 nM	6 h	103% and 98.3%
Zinc finger protein Aiolos	HiBiT	HEK293	3333.33 nM	–	87.6% and 88%
